# Published values pooled from the literature.
# Lines come from different studies, so protocols differ. Values joined by “and” are separate records of one study, mostly repeats; a detail may differ. ± gives the spread as reported.
# SET: Protein SET (SET, Homo sapiens, UniProt Q01105)
# Aryl hydrocarbon receptor: Aryl hydrocarbon receptor (Danio rerio, UniProt Q9YGV3)
# DDB1- and CUL4-associated factor 7: DDB1- and CUL4-associated factor 7 (Homo sapiens, UniProt P61962)
# TOP2A: DNA topoisomerase 2-alpha (TOP2A, Homo sapiens, UniProt P11388)
SMILES,target,test,test system,setting,how to read,measurement,result
CCCCCCCCCCCCC/C=C/[C@@H](O)[C@H](CO)NC(=O)CCCCCCCCCCCCC,SET,"lipid binding, GFP pull-down LC-MS/MS",A549 overexpressing GFP-tagged protein,,relative to: eluate plus flow-through,lipid fraction bound,4.7%
CC1CCCN1c1nccc(-c2cnn3ncccc23)n1 (stereo not drawn),"ABL1 (Homo sapiens, UniProt P00519, H396P)",KINOMEscan,,1 µM,,remaining binding,82%
O=C(COP(=O)(O)O)[C@@H](O)[C@H](O)[C@H](O)COP(=O)(O)O,"PMM2 (Homo sapiens, UniProt O15305)",,,"0.01 mM, unit not given",relative to: activity at 0 mM set to 100,enzyme activity,94.1 and 95.7 and 95.1
c1ccc2c(c1)-c1cccc3c1c-2cc1ccccc13,Aryl hydrocarbon receptor,"reporter gene, agonist, luciferase reporter",ZF-4,30000 µM,relative to: vehicle control,fold change,7.85
Nc1cccc(C(=O)Nc2ccc3[nH]ccc3c2)c1,"Alpha-synuclein (SNCA, Homo sapiens, UniProt P37840)",ThT kinetics,,"concentration not given, together with: SNCA 2 µM",,fibril formation,inhibited
CCN1CCC[C@H]1CNC(=O)c1c(O)c(Cl)cc(Cl)c1OC,"GPR143 (Homo sapiens, UniProt P51810)","β-arrestin recruitment, TANGO luminescence",,concentration not given,relative to: basal luminescence,log2 fold change,0.087
O=C(O)[C@@H]1CCCN1c1ncnc2[nH]cnc12 (racemic),DDB1- and CUL4-associated factor 7,"binding, affinity selection mass spectrometry",,,relative to: other proteins in batch,log fold enrichment,-0.0605
NCCCCC(=O)O,"SLC6A6 (Homo sapiens, UniProt P31641, G62A)","binding, microscale thermophoresis",,"250 µM, room temperature, together with: 50 nM labelled protein",higher = more binding,normalised MST signal,0.0181
CN(C)c1nccc(-c2cnn3ncccc23)n1,"ABL1 (Homo sapiens, UniProt P00519, F317L)",KINOMEscan,,1 µM,relative to: control,remaining binding,56% and 100%
c1coc(-c2n[nH]cc2-c2ccnc3ccccc23)c1,"pH-response regulator protein palF/RIM8 (RIM8, Candida albicans, UniProt Q9UW13)","kinase binding, MIB/MS competition",Candida albicans lysate,1 µM,"relative to: DMSO, negative = stronger binding",log2 fold change,-0.33
Cc1ncsc1-c1ccc(CNC(=O)[C@@H]2C[C@@H](O)CN2C(=O)[C@@H](NC(=O)C2(F)CC2)C(C)(C)C)c(OCCOCCOCCN2CCN(c3cc(-c4ccccc4O)nnc3N)CC2)c1,"SMARCA2 (Homo sapiens, UniProt P51531)","ternary complex binding, AlphaLISA competition",HEK293 cell lysate,together with: full-length VCB,relative to: binary IC50 over ternary IC50,cooperativity factor alpha,4.6
Cc1cccc(N2CC(C(=O)O)CC2=O)c1 (stereo not drawn),DDB1- and CUL4-associated factor 7,"binding, affinity selection mass spectrometry",,,relative to: other proteins in batch,fold enrichment,0.791
CCCCCCCCCCCCC/C=C/[C@@H](O)[C@H](CO)NC(=O)CCCCCCCCCCCCCCC,SET,"lipid binding, GFP pull-down LC-MS/MS",A549 overexpressing GFP-tagged protein,"ER-targeted construct, unit not given",relative to: vector-transfected cells,bound endogenous lipid,7.2
N#Cc1ccc2[nH]cc(CCCCN3CCN(c4ccc5oc(C(N)=O)cc5c4)CC3)c2c1,"SLC6A4 (Homo sapiens, UniProt P31645, S438T)","[3H]5-HT uptake, inhibitor",COS-7,,,Hill coefficient,0.98 ± 0.11
C[C@H](CCC(C)(C)O)[C@H]1CC[C@H]2[C@@H]3CC=C4C[C@@](C)(O)CC[C@]4(C)[C@H]3CC[C@]12C,"Glutamate NMDA receptor; GRIN1/GRIN2B (GRIN1/GRIN2B, Homo sapiens, UniProt Q05586+Q13224, M555A)","positive allosteric modulator, two-electrode voltage clamp",Xenopus oocytes expressing GluN1-M555A,"10 µM, 0.02% cremophor, together with: 100 µM glutamate and glycine",relative to: without compound,current response,216 ± 24%
CC[C@H](C)[C@H](NC(=O)[C@H](CCCNC(=N)N)NC(=O)[C@H](Cc1c[nH]cn1)NC(=O)[C@H](CCCNC(=N)N)NC(=O)[C@H](CC(=O)O)NC(=O)[C@H](CC(=O)O)NC(=O)[C@@H](NC(=O)[C@H](CC(=O)O)NC(=O)[C@@H]1CCCN1C(=O)[C@@H](N)CC(C)C)[C@@H](C)O)C(=O)N[C@@H](CCC(=O)O)C(=O)N[C@@H](CCC(=O)O)C(=O)N[C@@H](CCCCN)C(=O)N[C@@H](CCCNC(=N)N)C(=O)N[C@@H](CCCCN)C(=O)N[C@@H](CCCNC(=N)N)C(=O)N[C@H](C(=O)N[C@@H](Cc1ccc(O)cc1)C(=O)N[C@@H](CCC(=O)O)C(=O)N[C@H](C(=O)N[C@@H](Cc1ccccc1)C(=O)N[C@@H](CCCCN)C(=O)N[C@@H](CO)C(=O)N[C@H](C(=O)N[C@@H](CCSC)C(=O)N[C@@H](CCCCN)C(=O)N[C@@H](CCCCN)C(=O)N[C@@H](CO)C(=O)N1CCC[C@H]1C(=O)N[C@@H](Cc1ccccc1)C(=O)N[C@@H](CC(N)=O)C(=O)NCC(=O)N1CCC[C@H]1C(=O)O)[C@@H](C)CC)[C@@H](C)O)[C@@H](C)O,"NF-kappa-B inhibitor alpha (Homo sapiens, UniProt P25963)","binding, ITC",,"293 K, 150 mM NaCl",,ΔG,-8 ± 0.8 kcal/mol
[O-][S+]1CCCCS1 (stereo not drawn),"SOD1 (Homo sapiens, UniProt P00441, G94A)",LC-MS,brain homogenate,"100 µM, 1 h, 37 °C",,SOD1 dimer fraction,27%
COC(=O)c1cn(C)c2ccc(-c3cccnc3)cc12,"NR1H3 (Homo sapiens, UniProt Q13133)","reporter gene, Gal4 hybrid reporter",,10 µM,relative to: vehicle,activation,1.04 fold
C[C@@H]1CCN(c2nccc(-c3cnn4ncccc34)n2)C1,"ABL1 (Homo sapiens, UniProt P00519, F317I)",KINOMEscan,,1 µM,,remaining binding,60%
Cc1nc(CSc2nc(SCc3ccc(C(C)C)cc3)nc(=O)[nH]2)cs1,TOP2A,DNA relaxation,,"31.25 µM, replicate 2",,relaxed DNA,99.9%
Nc1ncnc2c1ncn2[C@@H]1O[C@H](COP(=O)(O)OP(=O)(O)O)[C@@H](O)[C@H]1O,"GUK1 (Homo sapiens, UniProt Q16774)",ITC,,molar ratio 2.388,,ΔH,-0.231 kcal/mol
CN(CCCCCCNC(=O)CNc1cccc2c1C(=O)N(C1CCC(=O)NC1=O)C2=O)Cc1cn(Cc2ccc(C(=O)NO)cc2)c2ccccc12.O=C(O)C(F)(F)F (stereo not drawn),"HDAC6 (Homo sapiens, UniProt Q9UBN7)","degrader, western blot",MM1.S,"1 µM, 24 h",,degradation,94%
CCCCc1cn2c(N)nc3ccccc3c2n1,"TLR8 (Homo sapiens, UniProt Q9NR97)","reporter gene, agonist, NF-κB reporter",HEK-Blue TLR8,,,EC50,inactive
c1ccc(C(NCc2cccnc2)(c2ccccc2)c2ccccc2)cc1,"KCNQ1 (Homo sapiens, UniProt P51787)",patch clamp,,"300 pM, at +60 mV",,inhibition time constant,70 ms
O=c1nc(SCc2cc(F)cc(C(F)(F)F)c2)nc(SCc2ccc3nc(Cl)ccc3c2)[nH]1,TOP2A,ATPase activity,,"125 µM, together with: ATP 0.025 mM",,ATP hydrolysis rate,0.197 µM/min and 0.363 µM/min
Nc1ccc2ccc3cccc4ccc1c2c34,Aryl hydrocarbon receptor,"reporter gene, agonist, luciferase reporter",ZF-4,123.5 µM,relative to: vehicle control,fold change,1.76
C=CC(=O)N1CCC[C@@H](n2nc(-c3ccc(Oc4ccccc4)cc3)c3c(N)ncnc32)C1,"Elongation factor 1-beta (Homo sapiens, UniProt P24534)",,,10 µM,,remaining activity,19.4%
O=C(O)c1ccc(Nc2ncc3c(n2)-c2ccc(Cl)cc2C(c2c(F)cccc2F)=NC3)cc1,human PAK4(h),kinase activity,,1 µM,,remaining activity,96%
O=C1C[C@@H](c2ccccc2)Oc2cc(O)cc(O)c21,Aryl hydrocarbon receptor,"reporter gene, agonist, luciferase reporter",ZF-4,123.5 µM,relative to: vehicle control,fold change,1.5
N#Cc1ccc(C[C@@H](Nc2nnc(-c3ccc(F)cc3)o2)C(=O)N2CCc3ccccc32)cc1,"FPR2 (Homo sapiens, UniProt P25090)",cell-based,,concentration not given,,activity,inactive
O=C1C=CC(=O)c2c1ccc1ccccc21,Aryl hydrocarbon receptor,"reporter gene, agonist, luciferase reporter",ZF-4,370.37 µM,relative to: vehicle control,fold change,18.3
CCOC(=O)C(C)c1n[nH]c2nc(N)[nH]c(=O)c2c1=O (stereo not drawn),"folP (Bacteria, UniProt P0AC13)",CETSA HiBiT,whole cells,,,melting temperature,63.5 °C
Nc1ncnc2c1ncn2[C@@H]1O[C@H](COP(=O)(O)CP(=O)(O)OP(=O)(O)O)[C@@H](O)[C@H]1O,"P2X purinoceptor 1 (P2RX1, Homo sapiens, UniProt P51575)",saturation binding,HEK293,103 nM,,specific binding,9210 CCPM and 8570 CCPM and 10200 CCPM and 4650 CCPM and 4760 CCPM
